Assay results collected from several papers.
± gives the spread as reported.

`CC(=O)NCCN(CCC(=O)NCCN(CCC(=O)NCCN(CCC(=O)NCCC(N)=O)C(=O)[C@@H](N)CCCNC(=N)N)C(=O)[C@@H](N)CCCNC(=N)N)C(=O)[C@@H](N)Cc1ccccc1`: “binding enthalpy ΔH°” -12.8 ± 0.311 kcal/mol (HIV-1 TAR RNA; concentration not given, 25 °C).
`C[C@H](Nc1ncnc(N)c1C#N)c1c(-c2ccccc2)[nH]c2c(Cl)cccc2c1=O` has an IC50 of under 20 µM (primary CLL cells; viability; 12 of 15 samples).
`CCCOC(=O)N1c2cc(CNC)ccc2[C@H](NC(=O)C(=O)Nc2ccc(Cl)c(F)c2)[C@H]1CNC(=N)N` gave an IC50 of 0.907 µM (Human immunodeficiency virus 1; viral infection, Env pseudovirus; TZM-bl, 3301.v1.c24 clade AC).
`CCCCCCCCCCCCCCCC(=O)N[C@@H](CCC(=O)NCCOCCOCCC(=O)NCCOCCOCCC(=O)NCCCC[C@H](NC(=O)[C@H](CC(=O)O)NC(=O)[C@H](CC(C)C)NC(=O)[C@H](Cc1ccc(O)cc1)NC(=O)[C@H](CCCCN)NC(=O)[C@H](CO)NC(=O)[C@H](Cc1ccc(O)cc1)NC(=O)[C@H](CC(=O)O)NC(=O)[C@H](CO)NC(=O)[C@@H](NC(=O)[C@H](Cc1ccccc1)NC(=O)[C@@H](NC(=O)CNC(=O)[C@H](CCC(N)=O)NC(=O)[C@@H](CO)NC(=O)[C@@H](N)Cc1c[nH]cn1)[C@@H](C)O)[C@@H](C)O)C(=O)N[C@@H](CCCNC(=N)N)C(=O)N[C@@H](CCCNC(=N)N)C(=O)N[C@@H](C)C(=O)N[C@@H](CCC(N)=O)C(=O)N[C@@H](CC(=O)O)C(=O)N[C@@H](Cc1ccccc1)C(=O)N[C@H](C(=O)N[C@@H](CCC(N)=O)C(=O)N[C@@H](Cc1c[nH]c2ccccc12)C(=O)N[C@@H](CC(C)C)C(=O)N[C@@H](CC(C)C)C(=O)N[C@@H](CC(N)=O)C(=O)N[C@H](C(=O)NCC(=O)NCC(=O)N1CCC[C@H]1C(=O)N[C@@H](CO)C(=O)N[C@@H](CO)C(=O)NCC(=O)N[C@@H](C)C(=O)N1CCC[C@H]1C(=O)N1CCC[C@H]1C(=O)N1CCC[C@H]1C(=O)N[C@@H](CO)C(N)=O)[C@@H](C)O)C(C)C)C(=O)O` gave a Cmax of 91.7 ng/mL (rhesus monkey, male, plasma; subcutaneous, 60 µg/kg, day 1, toxicokinetics, mean).
The IC80 of `CNCc1ccc2c(c1)N(C(=O)OCc1c(F)c(F)c(F)c(F)c1F)[C@H](CNC(=N)N)[C@H]2NC(=O)C(=O)Nc1ccc(Cl)c(F)c1` is reported as 5.99 µM (Human immunodeficiency virus 1; viral infection, Env pseudovirus; TZM-bl, 3301.v1.c24 clade AC).
`CC(=O)NCCN(CC(=O)NCCN(CC(=O)NCCN(CC(=O)NCCC(N)=O)C(=O)[C@@H](N)CCCCN)C(=O)[C@@H](N)Cc1ccccc1)C(=O)[C@@H](N)Cc1ccccc1` — result for “binding enthalpy ΔH°”: -13 ± 0.335 kcal/mol (HIV-1 TAR RNA; concentration not given, 25 °C).
The IC50 of `F[P-](F)(F)(F)(F)F.OC(Cn1cncn1)(Cn1cc(-[c-]2cccc2)nn1)c1ccc(F)cc1F.[Co+3].c1cc[cH-]c1` (racemic) is reported as 7.8 µM (Trypanosoma cruzi; parasite growth, resazurin; 24 h, trypomastigote).
